Measurements gathered from unrelated publications.
A part holds a random share of what one study measured. Positions count from the first letter of the parent shown.
Chain of UniProt O75417 (whole entry, unmodified, looked up): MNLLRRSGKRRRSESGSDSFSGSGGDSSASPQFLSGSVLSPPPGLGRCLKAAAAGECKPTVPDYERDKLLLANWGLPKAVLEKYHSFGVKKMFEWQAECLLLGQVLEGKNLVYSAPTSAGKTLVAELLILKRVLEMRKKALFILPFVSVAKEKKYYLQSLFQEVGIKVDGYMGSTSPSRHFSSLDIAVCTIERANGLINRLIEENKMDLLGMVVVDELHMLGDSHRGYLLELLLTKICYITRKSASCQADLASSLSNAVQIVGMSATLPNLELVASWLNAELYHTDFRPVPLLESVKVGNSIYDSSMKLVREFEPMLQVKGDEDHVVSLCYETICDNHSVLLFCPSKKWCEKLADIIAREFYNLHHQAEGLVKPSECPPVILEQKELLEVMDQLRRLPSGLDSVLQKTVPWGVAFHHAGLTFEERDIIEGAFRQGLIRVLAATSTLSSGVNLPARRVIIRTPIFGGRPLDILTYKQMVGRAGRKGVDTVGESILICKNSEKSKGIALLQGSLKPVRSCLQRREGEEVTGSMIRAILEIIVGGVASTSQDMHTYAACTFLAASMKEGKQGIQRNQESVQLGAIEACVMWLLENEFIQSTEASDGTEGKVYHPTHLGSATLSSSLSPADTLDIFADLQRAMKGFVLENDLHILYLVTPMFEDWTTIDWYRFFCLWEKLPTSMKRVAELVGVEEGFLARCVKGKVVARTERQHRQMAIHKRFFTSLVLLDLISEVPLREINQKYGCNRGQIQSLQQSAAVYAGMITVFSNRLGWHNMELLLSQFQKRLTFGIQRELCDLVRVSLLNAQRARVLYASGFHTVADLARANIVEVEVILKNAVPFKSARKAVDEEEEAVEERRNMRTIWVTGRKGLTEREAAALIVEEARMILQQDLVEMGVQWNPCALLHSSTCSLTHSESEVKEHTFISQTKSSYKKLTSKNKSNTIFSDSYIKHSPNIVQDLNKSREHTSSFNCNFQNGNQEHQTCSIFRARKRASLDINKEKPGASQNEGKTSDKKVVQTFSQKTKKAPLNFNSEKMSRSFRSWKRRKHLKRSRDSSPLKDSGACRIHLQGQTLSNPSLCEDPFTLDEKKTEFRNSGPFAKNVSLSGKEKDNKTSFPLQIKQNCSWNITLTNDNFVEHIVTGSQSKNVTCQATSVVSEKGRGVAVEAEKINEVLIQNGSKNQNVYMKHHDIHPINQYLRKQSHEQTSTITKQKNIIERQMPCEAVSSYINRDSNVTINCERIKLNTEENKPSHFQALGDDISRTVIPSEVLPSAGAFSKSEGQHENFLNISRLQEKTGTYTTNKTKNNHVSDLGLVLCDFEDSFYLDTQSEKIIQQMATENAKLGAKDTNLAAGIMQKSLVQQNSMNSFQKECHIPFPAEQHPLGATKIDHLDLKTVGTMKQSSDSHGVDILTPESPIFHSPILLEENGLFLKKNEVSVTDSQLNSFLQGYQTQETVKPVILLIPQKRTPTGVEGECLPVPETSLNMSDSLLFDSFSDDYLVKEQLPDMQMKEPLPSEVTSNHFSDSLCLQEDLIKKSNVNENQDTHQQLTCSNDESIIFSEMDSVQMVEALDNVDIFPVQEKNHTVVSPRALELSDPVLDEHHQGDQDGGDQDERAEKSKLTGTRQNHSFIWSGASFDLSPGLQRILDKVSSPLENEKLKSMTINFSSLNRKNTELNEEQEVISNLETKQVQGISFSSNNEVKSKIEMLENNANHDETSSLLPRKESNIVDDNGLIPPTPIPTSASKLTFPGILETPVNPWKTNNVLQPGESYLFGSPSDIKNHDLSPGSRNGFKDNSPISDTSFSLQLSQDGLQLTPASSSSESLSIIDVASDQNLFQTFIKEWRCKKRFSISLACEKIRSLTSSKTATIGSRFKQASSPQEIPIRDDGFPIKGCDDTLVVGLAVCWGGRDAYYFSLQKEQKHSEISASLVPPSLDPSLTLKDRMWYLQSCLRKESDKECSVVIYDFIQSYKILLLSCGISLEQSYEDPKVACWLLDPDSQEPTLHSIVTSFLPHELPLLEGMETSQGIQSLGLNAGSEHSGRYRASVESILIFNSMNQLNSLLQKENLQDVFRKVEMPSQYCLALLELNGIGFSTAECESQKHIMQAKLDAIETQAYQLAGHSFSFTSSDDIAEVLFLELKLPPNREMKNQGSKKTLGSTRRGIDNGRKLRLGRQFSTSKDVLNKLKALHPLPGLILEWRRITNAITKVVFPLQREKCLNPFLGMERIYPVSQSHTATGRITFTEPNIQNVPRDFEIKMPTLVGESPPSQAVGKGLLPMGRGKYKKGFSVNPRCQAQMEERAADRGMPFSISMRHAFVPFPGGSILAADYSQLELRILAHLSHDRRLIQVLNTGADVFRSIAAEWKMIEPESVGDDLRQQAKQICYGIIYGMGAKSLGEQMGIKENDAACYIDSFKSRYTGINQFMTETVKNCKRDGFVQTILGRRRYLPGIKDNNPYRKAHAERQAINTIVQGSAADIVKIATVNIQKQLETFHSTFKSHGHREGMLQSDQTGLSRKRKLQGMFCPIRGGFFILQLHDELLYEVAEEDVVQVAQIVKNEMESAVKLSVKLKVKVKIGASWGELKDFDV

Series 1
Target: CCNE2, cyclin fold, Cln2 fusion (human)
Technique: yeast growth competition, sequencing
Medium: yeast
Setting: weak parent motif
Baseline: not given
Direction: higher = stronger binding
Parent: viral docking peptide; PTARRRLLHDLDT
Under “normalised enrichment score”, `R5A R6A L7A L8A` is recorded as -0.0505.
`L8A`: “normalised enrichment score” -0.217.
`L8F` — result for “normalised enrichment score”: 5.52.
Under “normalised enrichment score”, `T13A` is recorded as 0.577.
`T2A`: “normalised enrichment score” 0.499.
Under “normalised enrichment score”, `R5K L8F` is recorded as 2.24.
`R4A` — result for “normalised enrichment score”: -0.546.
`R6A` — result for “normalised enrichment score”: 1.09.

Series 2
Target: vanadate, free oxyanion
Technique: microfluidic competitive inhibition
Medium: in vitro, cell-free expressed
Concentration: not given
Setting: derived from inhibition constants, unchanged parent 676 nM
Direction: lower = stronger binding
Parent: PafA, mature enzyme, eGFP fusion (Elizabethkingia meningoseptica, UniProt Q9KJX5); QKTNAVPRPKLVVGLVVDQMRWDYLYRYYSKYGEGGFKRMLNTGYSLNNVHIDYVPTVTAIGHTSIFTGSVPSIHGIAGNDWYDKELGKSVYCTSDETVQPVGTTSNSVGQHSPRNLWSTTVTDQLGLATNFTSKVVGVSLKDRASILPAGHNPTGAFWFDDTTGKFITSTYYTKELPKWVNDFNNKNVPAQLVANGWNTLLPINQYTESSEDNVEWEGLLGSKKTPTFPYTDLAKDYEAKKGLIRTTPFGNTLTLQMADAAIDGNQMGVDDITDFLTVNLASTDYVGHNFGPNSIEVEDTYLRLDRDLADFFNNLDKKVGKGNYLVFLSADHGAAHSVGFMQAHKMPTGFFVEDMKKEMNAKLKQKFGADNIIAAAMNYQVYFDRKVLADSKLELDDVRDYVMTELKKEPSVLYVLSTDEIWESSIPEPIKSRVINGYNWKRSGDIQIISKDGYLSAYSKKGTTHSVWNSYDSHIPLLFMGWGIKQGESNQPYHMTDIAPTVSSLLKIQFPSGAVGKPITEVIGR
`F328G` — result for “oxyanion analog dissociation constant”: 922 nM.
For `N42V`, “oxyanion analog dissociation constant” read 675 nM.
`P519G`: “oxyanion analog dissociation constant” 607 nM.
Under “oxyanion analog dissociation constant”, `P203G` is recorded as 551 nM.
`S65V`: “oxyanion analog dissociation constant” 2.57 µM.
`S283V` — result for “oxyanion analog dissociation constant”: 2.09 µM.
`F132G`: “oxyanion analog dissociation constant” 582 nM.
`V6A` — result for “oxyanion analog dissociation constant”: 631 nM.

Mixed results
The remaining activity of `C[C@]12CC[C@H](O)C[C@H]1CC[C@@H]1[C@@H]2C[C@@H](O)[C@]2(C)[C@@H](C3=CC(=O)OC3)CC[C@]12O` is reported as 103% (DNA polymerase theta, ATPase domain (POLQ, Homo sapiens, UniProt O75417); enzyme activity, inhibitor; 77 µM).
The remaining binding of `CNCc1ccccc1-c1csc([C@H](C)Nc2nc(C)nc3cc(OC)c(OC)cc23)c1` is reported as 81% (Calcium-dependent protein kinase 1 (CDPK1, Plasmodium falciparum, UniProt P62344); cell-free assay, competition with immobilised ligand; 1 µM).

Excerpt of the above (series 1):
`L8F` — result for “normalised enrichment score”: 5.52.
